Measured values gathered from unrelated publications.
Numbers after ± are the reported error.

SMILES | assay | system | setting | how to read | measurement | result
CCc1ccc(CC/C=C/c2ccc3c(c2)C(=O)CC3)cc1 |  | Sprague-Dawley rat, female | oral, 450 mg/kg/day, 14 days |  | Globulin | 22.3 g/L
CC(C)C(=O)OC[C@H]1O[C@@H](n2ccc(NO)nc2=O)[C@H](O)[C@@H]1O |  | rat maternal blood dialysate | 250 ng/mL, 6 h, 10 °C, high QC concentration, with: NHC 1000 ng/mL |  | autosampler stability | 104 ± 2.08%
Cn1ncc(-c2nc(N[C@H]3CC[C@H](N)CC3)ncc2Cl)c1CC1CC1 | HPLC-MS/MS | patients, plasma | oral, 11 mg, day 5 |  | AUC | 1820 ng·h/mL
CC(=O)c1c(C)c2cnc(Nc3ccc(C4CCN(CCS(C)(=O)=O)CC4)cn3)nc2n(C2CCCC2)c1=O |  | human, dose-escalation trial, plasma | oral, 150 mg twice daily, day 1, single dose |  | AUC(0-t) | 3730 ng·h/mL
C[C@@H]1OC(=O)NN=C1c1ccc(-c2ccc(F)cc2)c(C(F)(F)F)c1 | phase I trial, refers to: back pain all grades | human patients | 5 mg loading then 0.25 mg daily |  | patients with adverse event | 0%
CC(C)(O)c1cc(Nc2cc(Oc3cn(C4CC4)nc3C3CCOCC3)ccn2)ccn1 |  | patients with advanced cancer, Japanese cohort | oral, dose not given, treatment-related adverse events |  | AST increased, any grade | 33%
O=C1Nc2cc3[nH]nc(-c4ccncc4)c3cc2CN1Cc1ccccc1 | CTCAE v4.03 | human, relapsed or refractory advanced solid tumours | intravenous, 7.2 mg/kg |  | patients with photopsia | 33%
COc1ccnc(C(=O)N[C@H]2COC(=O)[C@H](Cc3ccccc3)[C@@H](OC(=O)C(C)C)[C@H](C)OC2=O)c1OCOC(=O)C(C)C |  | rats, mice and rabbits, faeces | oral, dose not given |  | excretion | 51 to 91%
CO[C@H]1C[C@@H]2CC[C@@H](C)[C@@](O)(O2)C(=O)C(=O)N2CCCC[C@H]2C(=O)O[C@H]([C@H](C)C[C@@H]2CC[C@@H](OC(=O)NCCOCCOCCOCCOCCOCCOCCOCCOCCC(=O)N3CCc4cc(Cn5nc(-c6ccc7oc(N)nc7c6)c6c(N)ncnc65)ccc4C3)[C@H](OC)C2)C[C@@H](O)[C@H](C)/C=C(\C)[C@@H](O)[C@@H](OC)C(=O)[C@H](C)C[C@H](C)/C=C/C=C/C=C/1C |  | patients with advanced solid tumours | intravenous, 6 mg weekly, any grade |  | pneumonia AE leading to dose reduction | 0%
CC(C)[C@@H]1NC(=O)CNC(=O)[C@H](CC(N)=O)NC(=O)[C@H](CCCNC(=N)N)NC(=O)[C@H](Cc2ccc(O)cc2)NC(=O)[C@H](C(C)C)NC(=O)[C@@H](NC(=O)[C@@H](NC(=O)[C@H](CC(N)=O)NC(=O)[C@H](Cc2c[nH]c3ccccc23)NC(=O)[C@H](C)NC(=O)[C@H](Cc2ccccc2)NC(=O)CN)C(C)C)CSSC[C@@H](C(=O)N[C@@H](Cc2cnc[nH]2)C(=O)N[C@@H](CCCNC(=N)N)C(=O)N[C@@H](CCCNC(=N)N)C(=O)N[C@@H](C)C(=O)N[C@@H](CC(N)=O)C(N)=O)NC(=O)[C@H](C(C)C)NC(=O)[C@H](CCCNC(=N)N)NC1=O |  | ICR mice, blood | intraperitoneal, 5 mg/kg, day 5 |  | platelet distribution width | 16 ± 0.62%
COc1cc2c(Oc3ccc4[nH]c(C)cc4c3F)ccnc2cc1OCC1(N)CC1 |  | paediatric recurrent refractory sarcoma | 8 mg |  | Hypertension incidence | 0%
CN1CC[C@@H](c2c(O)cc(O)c3c(=O)cc(-c4ccc(C(F)(F)F)cc4Cl)oc23)[C@@H]1CO | refers to: Anorexia | relapsed or refractory haematological malignancies | oral, dose not given, grade ≥3 |  | adverse event incidence | 0%
CCS(=O)(=O)Nc1ccc(Oc2ccc(F)cc2F)c(-c2cn(C)c(=O)c3[nH]ccc23)c1 | serious febrile neutropenia | human, relapsed/refractory AML | oral, dose not given |  | treatment-emergent adverse events | 16%
O=C(Nc1ccccc1)C1CCN(C(=O)Oc2cccnc2)CC1 | refers to: ear and labyrinth disorders | healthy women | oral, 100 mg, 9 days |  | subjects with adverse event | 15.4%
C[C@@H]1NC(=O)[C@H](CCCCNC(=O)CO/N=C/C(=O)NCCCC[C@@H]2NC(=O)[C@@H](Cc3ccccc3)NC(=O)[C@H](CC(=O)O)NC(=O)CNC(=O)[C@H](CCCNC(=N)N)NC2=O)NC(=O)CNC(=O)[C@@H]2CCCN2C(=O)[C@H](CCCCNC(=O)CO/N=C/C(=O)NCCCC[C@@H]2NC(=O)[C@@H](Cc3ccccc3)NC(=O)[C@H](CC(=O)O)NC(=O)CNC(=O)[C@H](CCCNC(=N)N)NC2=O)NC(=O)[C@H](CCCCNC(=O)[C@H](CCCCN)NC(=O)[C@H](Cc2ccccc2)NC(=O)CNC(=O)CN2CCCNCCNCCCNCC2)NC(=O)[C@H](CCCCNC(=O)CO/N=C/C(=O)NCCCC[C@@H]2NC(=O)[C@@H](Cc3ccccc3)NC(=O)[C@H](CC(=O)O)NC(=O)CNC(=O)[C@H](CCCNC(=N)N)NC2=O)NC(=O)CNC(=O)[C@@H]2CCCN2C(=O)[C@H](CCCCNC(=O)CO/N=C/C(=O)NCCCC[C@@H]2NC(=O)[C@@H](Cc3ccccc3)NC(=O)[C@H](CC(=O)O)NC(=O)CNC(=O)[C@H](CCCNC(=N)N)NC2=O)NC1=O [copper-64 labelled] | biodistribution after PET | mouse, U-87 MG tumour xenograft, tumor | intravenous, 24 h |  | tissue uptake | 2.25 ± 0.17 %ID/g
CCC[C@@](N)(CO)CCc1ccc(OCCCCCC(C)C)cc1 |  | male hound dog, plasma | oral, 2.5 mg/kg, capsule, geometric mean |  | AUC(0-t) | 1.59 µM·h
CC(C)NCCCC[C@@H]1NC(=O)[C@H](Cc2ccc(O)cc2)NC(=O)[C@H](Cc2ccccc2)NC(=O)CC[C@H](C(=O)N[C@@H](CCCCNC(C)C)C(=O)N[C@@H](CCCCNC(=O)[C@H](CCC(=O)O)NC(=O)[C@H](CCC(=O)O)NC(=O)[C@H](CCC(=O)O)NC(=O)CN2CCN(CC(=O)O)CCN(CC(=O)O)CC2)C(N)=O)NC(=O)CNC(=O)[C@H](Cc2ccc3ccccc3c2)NC(=O)[C@@H](CCCNC(=N)N)NC1=O [fluorine-18 labelled] | PET/CT | female CB17 SCID beige mice, U87.CD4 control xenograft, tumour | intravenous |  | standardized uptake value | 0.04 SUV
NCCCC[C@@H]1NC(=O)[C@@H](Cc2c[nH]c3ccccc23)NC(=O)[C@H](c2ccccc2)NC(=O)[C@@H]2C[C@@H](OC(=O)NCCN)CN2C(=O)[C@H](Cc2ccccc2)NC(=O)[C@H](Cc2ccc(OCc3ccccc3)cc2)NC1=O |  | healthy human volunteers | 600 µg twice daily |  | subjects with discoloured faeces | 25%
Cc1cc(C)c(CNC(=O)c2cc(Cl)c3c(c2C)O[C@@](C)([C@H]2CC[C@H](N(C)C)CC2)O3)c(=O)[nH]1 |  | human, relapsed/refractory NHL | concentration not given, treatment-related TEAEs, grade 5 |  | Hyponatraemia incidence | 0%
CC(C)[C@@H](CN1CC[C@@](C)(c2cccc(O)c2)[C@@H](C)C1)NC(=O)[C@@H]1Cc2ccc(O)cc2CN1C |  | rat, plasma | intraperitoneal, 5 mg/kg |  | AUCtotal | 1100 ng·h/mL
Clc1ccc(-c2ccccc2)cc1 |  | Sprague-Dawley rats, female, serum | inhalation, 23 µg/rat, 4 h after exposure |  | phosphorus | 8 ± 1 mg/dL
O=C([O-])CN1CCN(CC(=O)[O-])CCN(CC(=O)NCC2CCC(C(=O)N[C@@H](Cc3ccc4ccccc4c3)C(=O)NCCCC[C@H](NC(=O)N[C@@H](CCC(=O)O)C(=O)O)C(=O)O)CC2)CCN(CC(=O)[O-])CC1.[177Lu+3] (stereo partly drawn) |  | sodium acetate ascorbate buffer | radiochemical purity above 95% |  | shelf life | ≤ 3 days
CC(C)C1CCC(N2CCC(N3C(=O)C(=O)c4ccccc43)CC2)CC1 (stereo not drawn) |  | conscious Sprague-Dawley rat | intravenous bolus, 30 nmol/kg |  | sedation duration | ~30 min
C[C@]1(CO)Cc2ncn(-c3ccc(C#N)c(Cl)c3)c2C(=O)O1 |  | human, plasma | 3 mg, first dose fasted |  | half-life | 5.2 h
C[C@@H](NC(=O)N1C(=O)[C@H](Cc2ccnc(N)c2)[C@H]1C(=O)O)C1CCCCC1 |  | healthy adult Chinese volunteers | continuous intravenous infusion, 1.0 mg/kg/h, 5-day infusion, CTCAE 5.0 grading |  | incidence of urine erythrocyte positive | 12.5%
O.O.O.O.O.O.[Cl-].[Cl-].[Co+2] |  | rat female, faeces | oral, 10 mg/kg single, day 3 | relative to: vehicle control subtracted | cobalt in faeces | 0.35 µg/g
O=S(=O)(Nc1ccccc1)c1ccc(NC(=S)Nc2ccccc2)cc1 | refers to: TBIL | male mouse, blood | oral, 80 mg/kg daily, 14 days |  | blood chemistry level | 0.7 mg/dL
